Results from different studies.
Each line is one published result; not all experiments were run side by side. Numbers after ± are the reported error.

SMILES = CC[C@H](C)[C@H](NC(=O)[C@H](Cc1ccccc1)NC(=O)[C@H](CCC(=O)O)NC(=O)[C@H](CCCCNC(=O)COCCOCCNC(=O)COCCOCCNC(=O)CC[C@H](NC(=O)CCCCCCCCCCCCCCCCC(=O)O)C(=O)O)NC(=O)[C@H](C)NC(=O)[C@H](C)NC(=O)[C@H](CCC(N)=O)NC(=O)CNC(=O)[C@H](CCC(=O)O)NC(=O)[C@H](CC(C)C)NC(=O)[C@H](Cc1ccc(O)cc1)NC(=O)[C@H](CO)NC(=O)[C@H](CO)NC(=O)[C@@H](NC(=O)[C@H](CC(=O)O)NC(=O)[C@H](CO)NC(=O)[C@@H](NC(=O)[C@H](Cc1ccccc1)NC(=O)[C@@H](NC(=O)CNC(=O)[C@H](CCC(=O)O)NC(=O)C(C)(C)NC(=O)[C@@H](N)Cc1cnc[nH]1)[C@@H](C)O)[C@@H](C)O)C(C)C)C(=O)N[C@@H](C)C(=O)N[C@@H](Cc1c[nH]c2ccccc12)C(=O)N[C@@H](CC(C)C)C(=O)N[C@H](C(=O)N[C@@H](CCCNC(=N)N)C(=O)NCC(=O)N[C@@H](CCCNC(=N)N)C(=O)NCC(=O)O)C(C)C; assay = QT interval corrected for heart rate, 12-lead Holter ECG; test system = healthy human subjects; conditions = subcutaneous, 1.5 mg once weekly, 24 h post-dose, steady state; scale = relative to: placebo, time-matched baseline; measurement = placebo-subtracted change in QTcI; result = -4.6 ms
SMILES = CN[C@@H]1COc2c(S(=O)(=O)NC(=O)Nc3c4c(cc5c3CCC5)CCC4)cnn2C1; test system = healthy human volunteers, urine; conditions = oral, 600 mg, high-fat meal; measurement = fraction excreted in urine 0-48 h; result = 0.119
SMILES = COc1ccc2cc(CNC(=O)C3(C(=O)O)CCC3)ccc2c1; assay = colloidal aggregate formation, dynamic light scattering; test system = 50 mM potassium phosphate buffer; conditions = 200 µM, pH 7.0, 1% DMSO; scale = higher = more aggregation; measurement = DLS scattered light intensity; result = 1.56e+07 counts/s
SMILES = O=C(Nc1nc2cccc(-c3ccc(CN4CCS(=O)(=O)CC4)cc3)n2n1)C1CC1; assay = measured: gastrointestinal disorders; test system = human rheumatoid arthritis patients; conditions = oral, 75 mg once daily, 4 weeks, regardless of relatedness; measurement = treatment-emergent adverse events; result = 18.2%
SMILES = CC(C)C[C@H](NC(=O)CNC(=O)c1cc(Cl)ccc1Cl)B(O)O; assay = measured: Dysgeusia; test system = human newly diagnosed multiple myeloma; conditions = oral, dose not given, maintenance, grade 3, onset cycle 17 or later; measurement = treatment-emergent adverse events; result = 0%
SMILES = CO[C@H]1CC[C@H](N2C(=O)CNc3ncc(-c4ccc(C(C)(C)O)nc4)nc32)CC1; test system = patients, plasma; conditions = 15 mg, day -1, geometric mean; measurement = CL/F; result = 39.7 L/h
SMILES = Cc1ccc([C@@H]2O[C@H](CO)[C@@H](O)[C@H](O)[C@H]2O)cc1Cc1ccc(-c2ccc(F)cc2)s1; test system = Japanese type 2 diabetes patients; conditions = 25 mg, day 16, 24 h urine collection; scale = relative to: baseline; measurement = urinary potassium excretion change; result = -3.44 mEq
SMILES = C=C(NC(=O)c1nccc(OC)c1O)C(=O)O[C@@H](C)[C@H](OC(=O)C(C)C)[C@@H](Cc1ccccc1)C(=O)O; assay = soil adsorption; test system = clay loam soil; conditions = pH 6.8, organic carbon 0.5 %; measurement = Freundlich coefficient KF; result = 98.6 mL/g
SMILES = Cc1cc(-c2nccc3c2ccn3CC(=O)Nc2ccc(-c3cnccn3)cn2)ccn1; test system = human; conditions = 20 mg once daily, multiple ascending dose; measurement = vessel puncture site haematoma; result = 0%
SMILES = CCCCC1=NC2(CCCC2)C(=O)N1Cc1ccc(-c2ccccc2S(=O)(=O)Nc2noc(C)c2C)c(COCC)c1; test system = healthy adult volunteers, plasma; conditions = oral, 1600 mg, 14 days repeated dosing, fasted, crushed tablet; measurement = AUC(0-inf); result = 102 µg·h/mL
SMILES = Cc1c(C(=O)O)ccc2c3n(nc12)[C@@H]1[C@H](C3)N(CC2CC2)[C@@]2(C(=O)Nc3cc(Cl)ccc32)[C@H]1c1cccc(Cl)c1F; test system = human patients phase Ia; conditions = oral, dose not given, grade ≥3, all patients; measurement = gastroesophageal reflux incidence; result = 0%
SMILES = CC(=O)N1CCc2c(NS(=O)(=O)c3cccc(Cl)c3O)cccc21; assay = colloidal aggregate formation, dynamic light scattering; test system = 50 mM potassium phosphate buffer; conditions = 200 µM, pH 7.0, 1% DMSO; scale = higher = more aggregation; measurement = DLS scattered light intensity; result = 753000 counts/s
SMILES = CC(C)(C(=O)N1CCOc2c(C#N)cncc2C1)C(F)F; assay = measured: nervous system disorders; test system = human; conditions = oral, 10 mg once daily, 14 days, multiple ascending dose; measurement = subjects with adverse event; result = 25%
SMILES = C[C@@H](N)C1CCN(S(=O)(=O)c2cccc3cnccc23)CC1; test system = healthy volunteers; conditions = 25 mg and 250 mg combined, fasted; measurement = participants with TEAEs; result = 37.5%
SMILES = CNC(=O)c1ccc(-c2cnc3ncc(Cc4ccc5ncccc5c4)n3n2)cc1F; assay = measured: Dyspnea, all grades; test system = cancer patients; conditions = oral, 600 mg twice daily, other expansion cohort, any causality; measurement = patients with adverse event; result = 11%
SMILES = COc1ccc2c(=O)n(C)c(-c3ccccc3)nc2c1; test system = male Sprague-Dawley rat, small intestine; conditions = oral, 30 mg/kg, 4 h; measurement = tissue concentration; result = 12400 ng/g
SMILES = O=S(=O)(NCCCOc1ccccc1F)c1cc(Cl)cc(Cl)c1O; assay = colloidal aggregate formation, dynamic light scattering; test system = 50 mM potassium phosphate buffer; conditions = 200 µM, pH 7.0, 1% DMSO; scale = higher = more aggregation; measurement = DLS scattered light intensity; result = 666000 counts/s
SMILES = O=C(/C=C/CCc1ccc(O)cc1)/C=C/c1ccc(O)cc1; test system = nude mouse MCF7 xenograft; conditions = 10 mg/kg, day 8; measurement = body weight; result = 19.6 ± 1.46 g
SMILES = CNCc1ccc(-c2[nH]c3cc(F)cc4c3c2CCNC4=O)cc1; test system = patients; conditions = oral, 600 mg twice daily, grade 1; measurement = asthenia/fatigue incidence; result = 19.2%
SMILES = CCO[C@H]1CCN(Cc2c(OC)cc(C)c3[nH]ccc23)[C@H](c2ccc(C(=O)O)cc2)C1; test system = human moderate hepatic impairment, plasma; conditions = oral, 200 mg single dose, geometric mean; measurement = total Cmax; result = 3.23 µg/mL
SMILES = O=C(Nc1cnccc1Cl)N1CCN(Cc2ccc3c(c2)OC(F)(F)O3)CC1; assay = measured: Somnolence; test system = human healthy young women; conditions = 100 mg, multiple dose; measurement = adverse event incidence; result = 16.7%
SMILES = C=CC(=O)N1CCC(c2ccc(C(N)=O)c(-c3ccc(Oc4ccccc4)cc3)n2)CC1; test system = relapsed/refractory mantle cell lymphoma patients; conditions = oral, 150 mg once daily, part, CTCAE v4.03; measurement = serious TEAE rate; result = 0%
SMILES = O=C(COC(=O)c1n[nH]c2ccccc12)Nc1ccc(N2CCCCC2)cc1; assay = haemolysis; test system = sheep erythrocytes; conditions = 1 h, pH 7.5; measurement = HC50; result = > 128 µg/mL
SMILES = O=c1[nH]c(=O)n([C@H]2C[C@H](O)[C@@H](CO)O2)cc1CCCC[18F]; test system = CD-1 nu/nu male mice, RG2 tumour, blood; conditions = intravenous, dose not given, 2 h, co-injection; measurement = blood concentration; result = 0.24 ± 0.06 %ID/g
SMILES = O=C(O)CCC(=O)O.[2H]C([2H])([2H])Oc1cc(C)c2[nH]ccc2c1CN1CC[C@@H](C2CC2)C[C@H]1c1ccc(C(=O)O)cc1; assay = multiple ascending dose; test system = healthy Chinese subjects; conditions = 50 mg twice daily; measurement = subjects with TEAE Constipation; result = 0%
SMILES = CC(=O)NC[C@H]1CN(c2ccc(N3CCOCC3)c(F)c2)C(=O)O1; test system = human whole blood; conditions = concentration not given, 8 h, 4 °C; measurement = deviation from nominal concentration; result = 1%
SMILES = C#CC(CC1CCC1)NS(=O)(=O)c1cccc(Cl)c1O (stereo not shown); assay = colloidal aggregate formation, dynamic light scattering; test system = 50 mM potassium phosphate buffer; conditions = 200 µM, pH 7.0, 1% DMSO; scale = higher = more aggregation; measurement = DLS scattered light intensity; result = 413000 counts/s
SMILES = Nc1ncnc2c1ncn2[C@H]1C[C@@H]2OP(=O)(O)OC[C@H]3O[C@@H](n4cnc5c(N)ncnc54)C[C@@H]3OP(=O)(O)OC[C@H]2O1; test system = non-tumor-bearing mice, blood; conditions = intravenous, 1 mg/kg, toxicity study; measurement = MCV; result = 38.8 ± 0.41 fL
SMILES = CC(C)[C@H](N)C(=O)NCCCS(=O)(=O)O; test system = human both sexes, plasma; conditions = oral, 340 mg once daily days 8-14, day 14, fasted capsule; measurement = AUC(0-12); result = 13.8 µg·h/mL
SMILES = N#Cc1ccc2c(c1)[C@H]1CCCN(C(=O)c3ccc4[nH]cnc4c3)[C@H]1C2; test system = human; conditions = 80 mg, day 7; measurement = minimum ACTH level; result = 3.1 pmol/L
SMILES = CNCCOC12CC3(C)CC(C)(CC(Cn4ncc(-c5ccc(N6CCc7cccc(C(=O)Nc8nc9ccccc9s8)c7C6)nc5C(=O)O)c4C)(C3)C1)C2; test system = beagle dog, male, anaesthetised; conditions = intravenous bolus, 0.03 mg/kg, 105 min; scale = relative to: baseline; measurement = PR interval change; result = -9 ms
SMILES = CN1CCN=C1c1ccc(NC(=O)c2ccc(C(=O)Nc3ccc(C4=NCCN4C)cc3)cc2)cc1; assay = haemolysis; test system = sheep erythrocytes; conditions = 1 h, pH 7.5; measurement = HC50; result = > 128 µg/mL
SMILES = COc1ncc(-c2nc3c(n2C(C)C)[C@H](c2ccc(Cl)cc2)N(c2cc(Cl)cn(C)c2=O)C3=O)c(OC)n1; test system = human patients, plasma; conditions = oral, 400 mg, high-dose arm, cycle 1 day 1; measurement = AUC(0-t) geometric mean; result = 81.7 µg·h/mL
SMILES = Cc1cc(N2CCc3c(c(C)nn3CC34CCC(NC(=O)[C@@H]5COCCN5)(CC3)CC4)C2)c2cnn(C)c2n1; assay = LC-MS/MS; test system = 129/Sv mice; conditions = oral, 15 mg/kg, 3 h; measurement = blood concentration; result = 0.362 ± 0.184 µM
SMILES = CCn1cc(C(=O)N2CCOCC2)c(=O)c2cc(NC3Cc4ccccc4C3)cnc21; test system = human, fed; conditions = oral suspension, 600 mg/day twice daily, day 8, median; measurement = Tmax; result = 4 h
SMILES = CCN1/C(=C/C(C)=O)Sc2ccc(F)cc21; test system = cynomolgus monkey; conditions = oral, 30 mg/kg, 24 h post-dose; measurement = QRS duration; result = 35 ± 1 ms
SMILES = CCOc1c([C@H](C)n2nc(C)c3c(N)ncnc32)cc(Cl)c(F)c1[C@@H]1CNC(=O)C1; assay = measured: QTcF change ≤30 ms; test system = previously treated B-cell malignancy; conditions = oral, 10 mg once daily, baseline QTcF ≤450 ms; scale = relative to: baseline; measurement = ECG observations; result = 100%
